Published values from different studies.
Each numbered part is a random draw from the data of one study; scales do not carry over between parts. Positions count from the first letter of the parent shown.

Series 1
Target: ABI1, truncated, D143A, DHFR fusion (Arabidopsis thaliana)
Technique: DHFR PCA, deep sequencing
Medium: yeast
Setting: methotrexate growth selection, single substitutions
With: (+)-ABA 0.0091 µM
Relative to: wild-type fitted maximum
Direction: higher = stronger binding
Starting sequence: PYL1, truncated, DHFR fusion (Arabidopsis thaliana); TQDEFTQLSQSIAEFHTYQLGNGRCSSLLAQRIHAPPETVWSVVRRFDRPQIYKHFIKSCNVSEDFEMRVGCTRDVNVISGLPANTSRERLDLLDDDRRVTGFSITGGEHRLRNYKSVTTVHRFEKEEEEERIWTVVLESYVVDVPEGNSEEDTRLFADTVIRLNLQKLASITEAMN
Substitution	relative binding score
D48K	0.384%
K54A	1.29%
S11R	-1.14%
S140E	-2.14%

Series 2
Target: CCNE2, cyclin fold, Cln2 fusion (human)
Technique: yeast growth competition, sequencing
Medium: yeast
Setting: strong parent motif
Relative to: not given
Direction: higher = stronger binding
Starting sequence: GMNC docking peptide (human); KNAKRNLSSEFAN
Substitution	normalised enrichment score
KNAKRNMSSEFAN [L7M]	-0.0529
KNFKRNLSSEFAN [A3F]	1.37
KNAKRNLSSECAN [F11C]	0.4
KNAKRNLSSEFYN [A12Y]	0.913
KNAKRNLSAEFAN [S9A]	1.62

Series 3
Target: Fragile X messenger ribonucleoprotein 1, C-terminal low-complexity region (Fmr1, Mus musculus, UniProt P35922)
Technique: RNA Bind-n-Seq
Form: RNA
Medium: in vitro
Concentration: 200 nM
Setting: whole 134-nt RNA, ends assumed
With: 150 mM KCl
Relative to: input library
Direction: higher = stronger binding
Constant ends, left off below: GGGAGUUCUACAGUCCGACGAUC … UGGAAUUCUCGGGUGUCAAGG
Oligonucleotide	log2 enrichment
UUUGACGCGGUGUGUUACGUGGGGGAGAGAAUAAAACUCCAGCGAGAUCCGGGCCGUGAACGAAAGCAGUGACGGAGGAGCUUGUACCAC	0.574
ACCAUGCAGGUGGGCAUCUUUGGGAAGAAAGGCAAGGGGGGGAUAGGGAGGGGGGUAACACUUUGGGAACAGGUGGUCCCAGGUCGUUUC	1.21
UGUGCUACACAUCGUAUGUACCGAAUCGGGGUUUUUUUGGUUUUUUUGGGGUUUUUUUGGGGAAAGUAUUAUGUUACGCCGUUCGGAUCU	0.0238
GCAGGAAGUAAAAACAACUGGAAAUGCUUCGGAUAGUGGCAGGGGUGGGGGUUGCUAAGGAAAGGGUGGGAUGGGAGUGGGUAAAGAGUU	0.351
ACCAUGCAGGUGGGCAUCUUUGGGAAUUGGGGCAAGGGGGGGAUAGGGAGGGGGGUAACACUUUGGGAACAGGUGGUCCCAGGUCGUUUC	0.91
GUCCUGUGCUACACAUCGUAUGUACCGAAUCGGGUUUUUUGGUUUUUUGGUUUUUUGGAAAGUAUUAUGUUACGCCGUUCGGAUCUGCAC	-0.919
UCCUGUGCUACACAUCGUAUGUACCGAAUCGGGAAAAAGGGGAAAAAGGGAAAAAGGGGAAAGUAUUAUGUUACGCCGUUCGGAUCUGCA	-0.0271

Series 4
Substance: PhoQ, residues 284 288 289 292 302 303 ALASRC
Technique: Sort-seq
Item: YFP reporter
Medium: E. coli
Setting: PhoQ-PhoP variant library
With: 10 µM Mg2+
Relative to: high Mg2+ state
Direction: higher = stronger signaling
target	fold induction
PhoP, residues 12 14 15 18 19 SHWTV (Escherichia coli, UniProt P23836)	0.939
PhoP, residues 12 14 15 18 19 QYCSL (Escherichia coli, UniProt P23836)	7.18
PhoP, residues 12 14 15 18 19 STHWV (Escherichia coli, UniProt P23836)	5.23

For quick reference, copied from above (series 4):
target	fold induction
PhoP, residues 12 14 15 18 19 QYCSL (Escherichia coli, UniProt P23836)	7.18
